{"data": "Assay results of several laboratories", "technique": "steady-state kinetics", "B1": "Paox H64A (Mus musculus, UniProt Q8C0L6); chain MAFPGPRVLVVGSGIAGLGAAQKLCSHRAAPHLRVLEATASAGGRIRSERCFGGVVELGAHWIAGPSQDNPVFQLAAEFGLLGEKELSEENQLVDTGGHVALPSMIWSSSGTSVSLELMTEMARLFYGLIERTREFLNESETPMASVGEFLKKEISQQVASWTEDDEDTRKRKLAILNTFFNIECCVSGTHSMDLVALAPFGEYTVLPGLDCILAGGYQGLTDRILASLPKDTVAFDKPVKTIHWNGSFQEAAFPGETFPVLVECEDGARLPAHHVIVTVPLGFLKEHQDTFFEPPLPAKKAEAIKKLGFGTNNKIFLEFEEPFWEPDCQFIQVVWEDTSPLQDTALSLQDTWFKKLIGFLVQPSFESSHVLCGFIAGLESEFMETLSDEEVLLSLTQVLRRVTGNPQLPAAKSVRRSQWHSAPYTRGSYSYVAVGSTGDDLDLMAQPLPEDGTGTQLQVLFAGEATHRTFYSTTHGALLSGWREADRLVSLWDSQVEQSRPRL", "B2": "Nudt8 (Mus musculus, UniProt Q9CR24); chain MLPDGLSAEDEQRCRQLLARTTARLRSRPAAAAVLVPLCLVRGVPALLYTLRSSRLVGRHKGEVSFPGGKCDPDDQDVIHTALRETQEELGLEVPKEHVWGVLQPVYDREKATIVPVLANVGPLDLQSLRPNLEEVDEVFEMSLAHLLQTQNQGYTHFCQGGHFSYTLPVFLHGPHRVWGLTAVITELTLKLLAPGFYQPSLAVPELPRG", "B3": "ASRGL1 (Homo sapiens, UniProt Q7L266); chain 1 MNPIVVVHGGGAGPISKDRKERVHQGMVRAATVGYGILREGGSAVDAVEGAVVALEDDPEFNAGCGSVLNTNGEVEMDASIMDGKDLSAGAVSAVQCIANPIKLARLVMEKTPHCFLTDQGAAQFAAAMGVPEIPGEKLVTERNKKRLEKEKHEKGAQKTDCQKNLG; chain 2 TVGAVALDCKGNVAYATSTGGIVNKMVGRVGDSPCLGAGGYADNDIGAVSTTGHGESILKVNLARLTLFHIEQGKTVEEAADLSLGYMKSRVKGLGGLIVVSKTGDWVAKWTSTSMPWAAAKDGKLHFGIDPDDTTITDLP", "B4": "LYS12 D271N (Saccharomyces cerevisiae, UniProt P40495); chain SLTIGLIPGDGIGKEVIPAGKQVLENLNSKHGLSFNFIDLYAGFQTFQETGKALPDETVKVLKEQCQGALFGAVQSPTTKVEGYSSPIVALRREMGLFANVRPVKSVEGEKGKPIDMVIVRENTEDLYIKIEKTYIDKATGTRVADATKRISEIATRRIATIALDIALKRLQTRGQATLTVTHKSNVLSQSDGLFREICKEVYESNKDKYGQIKYNEQIVDSMVYRLFREPQCFDVIVAPNLYGDILSNGAAALVGSLGVVPSANVGPEIVIGEPCHGSAPDIAGKGIANPIATIRSTALMLEFLGHNEAAQDIYKAVDANLREGSIKTPDLGGKASTQQVVDDVLSRL", "B5": "FNO G29W (Thermobifida fusca, UniProt Q47RA9); chain MIMIMASKSSPHDLPDVSGLSIAVLGGTWDQGRGLARRFAMAGHEVILGSRSAERAQAVAAELGEGLPVRGMDNAGAAEAGDVVIVAVPWDGHRALLESLKDVLAGKIVVDCVNPLGFDKRGAYALPVEEGSAAEQAAAILPDSRVVAAFHHVSAVLLLDPEVEKVDLDVLVLGDDREATDVVRALAARIPGVRGVYGGRLRNAHQVEAFTANLISINRRYKAHAGIRITDI", "B6": "HCT R356E (Coleus scutellarioides, UniProt E8ZAP2); chain MKIHVRDSTLVRPSAATPAVSLWNSNVDLVVPNFHTPSVYFYRPSGADNFFDTAVMKAALGRALVSFYPMAGRLKRDEDGRVEIDCNAEGVLFVEAESDGTVDDYGDFAPSLELRRLIPAVDYSQGISAYPLLVLQVTFFKCGGVSLGVGMQHHAADGFSGLHFINTWSDMARGLDITLPPFIDRTLLSARDPPQPQFKHVEYQPPPAMKTYEPAETVVSIFKLTKDQLTTLKAKSKEDGNTTTYSSYEMLSGHVWRCTCLARGLPEEQETKLYIATDGRSRLQPQLPPGYFGNVIFTATPLAVAGDLGSKPVWYAASKIHDALARMDNDYLRSALDFLELQPDLKALVRGAHTFECPNLGITSWVRLPIHDADFGWGRPIFMGPGGIAYEGLSFVLPSPTNDGSLSVAISLQAEHMKLFEKLLYQI", "B7": "enzyme (Comamonas testosteroni, UniProt B7WQT1); chain MMTHEENELLCRVEGDAPMGRLMRRHWTPICLVEEVGEPDGTPVKARAFGEDLVVFRDSEGRVGVMDEYCPHRRASLVYGRNEEGGLRCLYHGWKMDVDGNVLEMASEPAASGMVDKVKHTAYPTQEWAGMVWAYMGPKETMPEFLPPAWAPTADTRVSIAKVLLPCNWAQILEGAIDSAHSSSLHSSDMVPARVDGAKATDKTWLRPSTDKAPRMQVQRTGYGFRYAALRRPLSNAAENDYVRSTVFVAPATALIPPNNLYNVANINVPMDDTNTAFYFIAWGHPSQTPETETWRKFLRQTVGVDLDQNYRPLRNEANKFWQDRNAMKAGNFTGITGFPNQDVAMWLTMGPIADRTHDRLGASDLAIVEFRKQMLDAVKAFEQGAPAIGTGVEAATPTVCSFQAIVPKTTDWRTYDAHYVWLDGQDRPEFEPSYSVKS", "B8": "cyc1 F96W (Streptomyces coelicolor, UniProt Q9K499); chain MHAFPHGTTATPTAIAVPPSLRLPVIEAAFPRQLHPYWPKLQETTRTWLLEKRLMPADKVEEYADGLCYTDLMAGYYLGAPDEVLQAIADYSAWFWVWDDRHDRDIVHGRAGAWRRLRGLLHTALDSPGDHLHHEDTLVAGFADSVRRLYAFLPATWNARFARHFHTVIEAYDREFHNRTRGIVPGVEEYLELRRLTFAHWIWTDLLEPSSGCELPDAVRKHPAYRRAALLSQEFAAWYNDLCSLPKEIAGDEVHNLGISLITHHSLTLEEAIGEVRRRVEECITEFLAVERDALRFADELADGTVRGKELSGAVRANVGNMRNWFSSVYWFHHESGRYMVDSWDDRSTPPYVNNEAAGEK", "B9": "Tcur_2987 Y332F (Thermomonospora curvata, UniProt D1A807); chain ACSEERAAGARPSATQTTGTATEPFHGPHQAGIATPPQAHAVFLGLDLRKGTGRKELGRLMRLLTDDARRLTQGRPALADPEPDLAPLPSRLTFTFGFGPGLFKAAGLEKQRPEGLRPLPPFKVDRLEDRWSGGDLLVQICCDDPITLAHALRMTVKDARAFTRVRWVQRGFRRSPGVQSSGATQRNLMGQLDGTVNPVPGTADFDQAVWVQDGPEWLRGGTTLVLRRIRMELEKWDEADPAGKEFAVGRRLTSGAPLTGRHEHDEPDFDAVDSAGFPVIAENAHIRLAHVDSPRLRMLRRPYNFDEGLTADGRSDAGLLFAAYQADIDRQFIPVQRRLDEGGDLLNLWTTPIGSAVFAIPPGCDENGWIGQGLLG", "note": "Lines come from different studies, so protocols differ. Numbers after ± are the reported error.", "sequence of UniProt Q6PHW0 (whole entry, looked up)": "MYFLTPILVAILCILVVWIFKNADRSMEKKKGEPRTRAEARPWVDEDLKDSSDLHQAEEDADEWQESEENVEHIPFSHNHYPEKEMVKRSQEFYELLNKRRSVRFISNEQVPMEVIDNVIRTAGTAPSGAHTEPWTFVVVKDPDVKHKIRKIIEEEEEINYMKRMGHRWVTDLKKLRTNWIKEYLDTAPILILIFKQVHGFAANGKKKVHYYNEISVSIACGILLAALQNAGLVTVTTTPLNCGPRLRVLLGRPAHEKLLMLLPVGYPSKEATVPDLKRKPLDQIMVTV", "sequence of UniProt P07914 (whole entry, looked up)": "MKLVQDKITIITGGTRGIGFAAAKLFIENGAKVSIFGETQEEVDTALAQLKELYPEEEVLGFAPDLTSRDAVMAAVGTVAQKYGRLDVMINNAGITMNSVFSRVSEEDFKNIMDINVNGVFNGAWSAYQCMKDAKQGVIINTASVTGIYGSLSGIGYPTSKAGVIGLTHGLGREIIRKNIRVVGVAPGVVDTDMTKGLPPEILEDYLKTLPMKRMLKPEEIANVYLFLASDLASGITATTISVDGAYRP", "sequence of UniProt P08253 (whole entry, looked up)": "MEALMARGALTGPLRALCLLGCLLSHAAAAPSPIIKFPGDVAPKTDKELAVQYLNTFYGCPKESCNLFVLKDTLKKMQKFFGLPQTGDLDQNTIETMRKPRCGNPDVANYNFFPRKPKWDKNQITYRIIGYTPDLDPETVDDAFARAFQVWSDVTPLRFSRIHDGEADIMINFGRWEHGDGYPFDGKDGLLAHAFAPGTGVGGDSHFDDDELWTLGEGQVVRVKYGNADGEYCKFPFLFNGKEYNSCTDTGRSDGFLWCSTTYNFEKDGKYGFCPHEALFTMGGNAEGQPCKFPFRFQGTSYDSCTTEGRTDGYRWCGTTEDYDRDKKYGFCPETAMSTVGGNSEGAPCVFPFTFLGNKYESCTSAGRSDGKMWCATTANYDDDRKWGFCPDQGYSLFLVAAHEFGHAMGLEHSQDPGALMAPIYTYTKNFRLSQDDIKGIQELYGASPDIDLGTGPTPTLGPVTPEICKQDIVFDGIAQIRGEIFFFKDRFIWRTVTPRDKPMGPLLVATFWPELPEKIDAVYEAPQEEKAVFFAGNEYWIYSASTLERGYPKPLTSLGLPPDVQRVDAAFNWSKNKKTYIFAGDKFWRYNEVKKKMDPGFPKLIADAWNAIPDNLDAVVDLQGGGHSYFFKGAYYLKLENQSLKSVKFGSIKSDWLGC"}
{"Substance": "α-amino ester hydrolase (Xanthomonas campestris, UniProt Q8P8K4)", "substrate": "COC(=O)[C@H](N)c1ccccc1", "pH": "pH 7", "temperature": "25 °C", "setting": "phosphate 100 mM", "kcat/Km [M⁻¹ s⁻¹]": 265000}
{"Substance": "B1 (Paox H64A)", "substrate": "c1ccc(CNCCCCNCc2ccccc2)cc1", "pH": "pH 8.6", "temperature": "30 °C", "kcat/Km [M⁻¹ s⁻¹]": "600 ± 100"}
{"Substance": "B2 (Nudt8)", "substrate": "CC(C)(COP(=O)(O)OP(=O)(O)OC[C@H]1O[C@@H](n2cnc3c(N)ncnc32)[C@H](O)[C@@H]1OP(=O)(O)O)[C@@H](O)C(=O)NCCC(=O)NCCSC(=O)CCC(=O)O", "pH": "pH 8.5", "together with": "2 mM Mn2+", "kcat/Km [M⁻¹ s⁻¹]": 9500}
{"Substance": "Ptb (Listeria monocytogenes, UniProt Q8Y7B7)", "substrate": "CC(C)CC(=O)SCCNC(=O)CCNC(=O)[C@H](O)C(C)(C)COP(=O)(O)OP(=O)(O)OC[C@H]1O[C@@H](n2cnc3c(N)ncnc32)[C@H](O)[C@@H]1OP(=O)(O)O", "pH": "pH 7.5", "temperature": "25 °C", "setting": "apparent", "kcat/Km [M⁻¹ s⁻¹]": "1.96e+07"}
{"Substance": "AphC (Rhodococcus jostii, UniProt Q0S9X1)", "substrate": "CCCc1ccc(O)c(O)c1", "pH": "pH 8", "temperature": "25 °C", "setting": "apparent", "together with": "O2", "kcat/Km [M⁻¹ s⁻¹]": 920000}
{"Substance": "BaiA1 (Clostridium scindens, UniProt P07914)", "substrate": "C[C@H](CCC(=O)SCCNC(=O)CCNC(=O)[C@H](O)C(C)(C)COP(=O)(O)OP(=O)(O)OC[C@H]1O[C@@H](n2cnc3c(N)ncnc32)[C@H](O)[C@@H]1OP(=O)(O)O)[C@H]1CC[C@H]2[C@@H]3CC[C@@H]4C[C@H](O)CC[C@]4(C)[C@H]3C[C@H](O)[C@]12C", "pH": "pH 8.7", "temperature": "37 °C", "together with": "NAD+", "kcat/Km [M⁻¹ s⁻¹]": 54200}
{"Substance": "B3 (ASRGL1)", "substrate": "N[C@@H](CC(=O)N[C@@H](Cc1ccccc1)C(=O)O)C(=O)O", "pH": "pH 7.4", "temperature": "37 °C", "setting": "NaCl 100 mM", "kcat/Km [M⁻¹ s⁻¹]": "8000 ± 1300"}
{"Substance": "IYD (Homo sapiens, UniProt Q6PHW0)", "substrate": "COc1cc(C[C@H](N)C(=O)O)cc(I)c1O", "pH": "pH 7.4", "temperature": "25 °C", "together with": "sodium dithionite 0.5%", "kcat/Km [M⁻¹ s⁻¹]": "9000 ± 3000"}
{"Substance": "B4 (LYS12 D271N)", "substrate": "NC(=O)c1ccc[n+]([C@@H]2O[C@H](COP(=O)([O-])OP(=O)(O)OC[C@H]3O[C@@H](n4cnc5c(N)ncnc54)[C@H](O)[C@@H]3O)[C@@H](O)[C@H]2O)c1", "pH": "pH 7.5", "temperature": "25 °C", "setting": "potassium acetate 100 mM", "together with": "Mg-cosubstrate varied; Mg2+ 10 mM", "kcat/Km [M⁻¹ s⁻¹]": "1080 ± 30"}
{"Substance": "B5 (FNO G29W)", "substrate": "NC(=O)c1ccc[n+](Cc2ccccc2)c1", "pH": "pH 8", "temperature": "25 °C", "together with": "F420H2 40 µM", "kcat/Km [M⁻¹ s⁻¹]": "97 ± 15"}
{"Substance": "B6 (HCT R356E)", "substrate": "NCCc1ccc(O)c(O)c1", "pH": "pH 8", "setting": "pseudo-first-order", "together with": "p-coumaroyl CoA", "kcat/Km [M⁻¹ s⁻¹]": "24.3 ± 0.6"}
{"Substance": "B7 (enzyme)", "substrate": "O=C(O)c1ccc(C(=O)O)cc1", "pH": "pH 8", "temperature": "25 °C", "setting": "apparent", "kcat/Km [M⁻¹ s⁻¹]": "22000 ± 4000"}
{"Substance": "B8 (cyc1 F96W)", "substrate": "CC(C)=CCC/C(C)=C/CC/C(C)=C/CO[P@@](=O)(O)OP(=O)(O)O", "pH": "pH 6.5", "temperature": "30 °C", "together with": "MgCl2 10 mM", "kcat/Km [M⁻¹ s⁻¹]": "1200 ± 400"}
{"Substance": "trypsin (Saccharopolyspora erythraea, UniProt Q54137)", "substrate": "N=C(N)NCCC[C@H](NC(=O)c1ccccc1)C(=O)Nc1ccc([N+](=O)[O-])cc1", "pH": "pH 8", "temperature": "25 °C", "kcat/Km [M⁻¹ s⁻¹]": "5730 ± 520"}
{"Substance": "pyc (Rhizobium etli, UniProt Q2K340)", "substrate": "Nc1ncnc2c1ncn2[C@@H]1O[C@H](COP(=O)(O)OP(=O)(O)OP(=O)(O)O)[C@@H](O)[C@H]1O", "pH": "pH 7.8", "temperature": "30 °C", "setting": "no pyruvate", "together with": "NaHCO3 20 mM, acetyl CoA 0.25 mM, Mg2+ 5 mM", "kcat/Km [M⁻¹ s⁻¹]": 6860}
{"Substance": "B9 (Tcur_2987 Y332F)", "substrate": "Nc1c(S(=O)(=O)O)cc(Nc2cccc(S(=O)(=O)CCOS(=O)(=O)O)c2)c2c1C(=O)c1ccccc1C2=O", "pH": "pH 3", "setting": "sigmoidal kinetics", "together with": "H2O2 1 mM", "kcat/Km [M⁻¹ s⁻¹]": "2.5e+06"}
{"Substance": "MMP2 (Homo sapiens, UniProt P08253)", "substrate": "CC(=O)NCC(=O)N1CCC[C@H]1C(=O)N[C@@H](CC(C)C)C(=O)NCC(=O)N[C@@H](CC(C)C)C(=O)N[C@@H](CO)C(=O)N[C@@H](CC(C)C)C(=O)NCC(=O)N[C@@H](CCCCN)C(N)=O", "kcat/Km [M⁻¹ s⁻¹]": 98000}
{"note": "Excerpt of the above:"}
{"Substance": "IYD (Homo sapiens, UniProt Q6PHW0)", "substrate": "COc1cc(C[C@H](N)C(=O)O)cc(I)c1O", "pH": "pH 7.4", "temperature": "25 °C", "together with": "sodium dithionite 0.5%", "kcat/Km [M⁻¹ s⁻¹]": "9000 ± 3000"}
